{"data": "Measurements gathered from unrelated publications", "note": "Numbered parts are unrelated; each lists some results of a single study. Values joined by “and” are separate records of one study, mostly repeats; a detail may differ.", "chain of UniProt P42336 (whole entry, unmodified, looked up)": "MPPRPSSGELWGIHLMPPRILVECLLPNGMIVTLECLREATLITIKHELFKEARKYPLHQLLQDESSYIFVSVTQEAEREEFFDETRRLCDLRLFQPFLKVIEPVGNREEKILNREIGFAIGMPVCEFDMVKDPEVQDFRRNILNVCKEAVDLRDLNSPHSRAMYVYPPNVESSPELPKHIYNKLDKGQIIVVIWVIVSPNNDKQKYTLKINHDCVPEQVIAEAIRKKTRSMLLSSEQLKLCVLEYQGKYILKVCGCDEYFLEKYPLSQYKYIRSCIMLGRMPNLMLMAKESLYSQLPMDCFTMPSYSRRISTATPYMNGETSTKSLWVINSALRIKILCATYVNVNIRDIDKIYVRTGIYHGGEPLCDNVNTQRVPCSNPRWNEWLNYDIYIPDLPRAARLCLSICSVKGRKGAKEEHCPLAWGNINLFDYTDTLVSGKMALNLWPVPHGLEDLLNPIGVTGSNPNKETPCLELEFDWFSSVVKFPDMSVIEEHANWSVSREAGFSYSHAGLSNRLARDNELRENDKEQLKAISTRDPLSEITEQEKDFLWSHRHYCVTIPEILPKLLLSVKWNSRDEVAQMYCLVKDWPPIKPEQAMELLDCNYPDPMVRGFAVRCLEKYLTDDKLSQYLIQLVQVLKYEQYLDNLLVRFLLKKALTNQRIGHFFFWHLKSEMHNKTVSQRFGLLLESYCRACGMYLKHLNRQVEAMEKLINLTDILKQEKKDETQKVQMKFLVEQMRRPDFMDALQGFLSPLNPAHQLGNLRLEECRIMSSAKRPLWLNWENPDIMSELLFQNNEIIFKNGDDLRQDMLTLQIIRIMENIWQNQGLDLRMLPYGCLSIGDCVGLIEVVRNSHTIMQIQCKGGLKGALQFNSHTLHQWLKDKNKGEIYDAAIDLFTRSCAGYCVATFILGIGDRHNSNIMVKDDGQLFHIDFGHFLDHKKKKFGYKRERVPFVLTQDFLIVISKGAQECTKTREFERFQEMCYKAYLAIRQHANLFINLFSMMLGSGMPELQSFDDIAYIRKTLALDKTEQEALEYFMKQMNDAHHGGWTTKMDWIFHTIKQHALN", "chain of UniProt P10721 (whole entry, looked up)": "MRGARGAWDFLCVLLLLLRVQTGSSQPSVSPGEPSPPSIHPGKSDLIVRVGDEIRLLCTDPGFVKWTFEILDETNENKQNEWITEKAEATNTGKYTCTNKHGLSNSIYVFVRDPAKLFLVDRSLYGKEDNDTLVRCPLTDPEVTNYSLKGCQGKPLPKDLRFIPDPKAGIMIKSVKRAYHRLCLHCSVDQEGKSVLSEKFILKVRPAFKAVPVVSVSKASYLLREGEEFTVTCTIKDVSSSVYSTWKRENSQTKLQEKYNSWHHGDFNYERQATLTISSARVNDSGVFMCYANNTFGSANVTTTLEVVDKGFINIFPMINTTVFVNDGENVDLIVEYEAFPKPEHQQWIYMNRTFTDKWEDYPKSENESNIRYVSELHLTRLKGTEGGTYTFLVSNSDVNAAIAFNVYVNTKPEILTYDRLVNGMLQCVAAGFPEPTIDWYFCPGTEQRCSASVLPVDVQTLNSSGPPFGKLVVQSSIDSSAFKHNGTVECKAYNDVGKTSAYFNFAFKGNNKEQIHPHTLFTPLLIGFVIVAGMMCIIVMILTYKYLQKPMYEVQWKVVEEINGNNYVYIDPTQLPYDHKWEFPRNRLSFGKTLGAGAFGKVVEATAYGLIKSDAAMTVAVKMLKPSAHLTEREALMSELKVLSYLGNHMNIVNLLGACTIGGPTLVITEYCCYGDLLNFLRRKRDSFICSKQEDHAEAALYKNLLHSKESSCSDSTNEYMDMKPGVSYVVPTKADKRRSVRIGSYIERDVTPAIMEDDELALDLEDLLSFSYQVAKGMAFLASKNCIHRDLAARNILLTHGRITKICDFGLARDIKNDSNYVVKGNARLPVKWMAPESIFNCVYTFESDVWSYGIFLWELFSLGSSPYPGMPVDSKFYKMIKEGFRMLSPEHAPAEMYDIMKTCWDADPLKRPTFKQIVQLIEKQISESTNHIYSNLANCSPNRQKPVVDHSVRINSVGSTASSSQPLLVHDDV", "chain of UniProt Q08345 (whole entry, looked up)": "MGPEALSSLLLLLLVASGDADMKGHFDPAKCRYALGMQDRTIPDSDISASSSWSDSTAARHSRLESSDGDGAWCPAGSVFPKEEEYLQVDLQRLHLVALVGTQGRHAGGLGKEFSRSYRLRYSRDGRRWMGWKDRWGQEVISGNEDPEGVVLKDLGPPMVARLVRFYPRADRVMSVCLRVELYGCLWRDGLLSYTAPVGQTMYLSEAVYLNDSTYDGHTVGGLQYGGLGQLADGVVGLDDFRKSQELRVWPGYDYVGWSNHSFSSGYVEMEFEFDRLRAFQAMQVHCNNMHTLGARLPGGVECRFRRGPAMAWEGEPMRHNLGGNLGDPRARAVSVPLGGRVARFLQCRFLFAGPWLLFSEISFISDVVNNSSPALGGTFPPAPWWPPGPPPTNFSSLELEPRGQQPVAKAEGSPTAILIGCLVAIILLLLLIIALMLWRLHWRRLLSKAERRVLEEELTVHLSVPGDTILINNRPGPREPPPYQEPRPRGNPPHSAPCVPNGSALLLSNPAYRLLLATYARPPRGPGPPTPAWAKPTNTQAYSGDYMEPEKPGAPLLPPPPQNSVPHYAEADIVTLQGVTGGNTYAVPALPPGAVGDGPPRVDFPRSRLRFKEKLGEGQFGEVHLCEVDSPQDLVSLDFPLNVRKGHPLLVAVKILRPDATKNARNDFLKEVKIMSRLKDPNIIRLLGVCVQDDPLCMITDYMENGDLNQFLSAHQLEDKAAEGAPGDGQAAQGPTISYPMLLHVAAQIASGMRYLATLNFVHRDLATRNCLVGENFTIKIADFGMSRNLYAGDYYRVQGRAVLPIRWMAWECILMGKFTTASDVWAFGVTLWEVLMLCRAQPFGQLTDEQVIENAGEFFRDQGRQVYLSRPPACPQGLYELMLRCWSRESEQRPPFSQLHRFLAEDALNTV", "chain of UniProt Q7L7X3 (whole entry, looked up)": "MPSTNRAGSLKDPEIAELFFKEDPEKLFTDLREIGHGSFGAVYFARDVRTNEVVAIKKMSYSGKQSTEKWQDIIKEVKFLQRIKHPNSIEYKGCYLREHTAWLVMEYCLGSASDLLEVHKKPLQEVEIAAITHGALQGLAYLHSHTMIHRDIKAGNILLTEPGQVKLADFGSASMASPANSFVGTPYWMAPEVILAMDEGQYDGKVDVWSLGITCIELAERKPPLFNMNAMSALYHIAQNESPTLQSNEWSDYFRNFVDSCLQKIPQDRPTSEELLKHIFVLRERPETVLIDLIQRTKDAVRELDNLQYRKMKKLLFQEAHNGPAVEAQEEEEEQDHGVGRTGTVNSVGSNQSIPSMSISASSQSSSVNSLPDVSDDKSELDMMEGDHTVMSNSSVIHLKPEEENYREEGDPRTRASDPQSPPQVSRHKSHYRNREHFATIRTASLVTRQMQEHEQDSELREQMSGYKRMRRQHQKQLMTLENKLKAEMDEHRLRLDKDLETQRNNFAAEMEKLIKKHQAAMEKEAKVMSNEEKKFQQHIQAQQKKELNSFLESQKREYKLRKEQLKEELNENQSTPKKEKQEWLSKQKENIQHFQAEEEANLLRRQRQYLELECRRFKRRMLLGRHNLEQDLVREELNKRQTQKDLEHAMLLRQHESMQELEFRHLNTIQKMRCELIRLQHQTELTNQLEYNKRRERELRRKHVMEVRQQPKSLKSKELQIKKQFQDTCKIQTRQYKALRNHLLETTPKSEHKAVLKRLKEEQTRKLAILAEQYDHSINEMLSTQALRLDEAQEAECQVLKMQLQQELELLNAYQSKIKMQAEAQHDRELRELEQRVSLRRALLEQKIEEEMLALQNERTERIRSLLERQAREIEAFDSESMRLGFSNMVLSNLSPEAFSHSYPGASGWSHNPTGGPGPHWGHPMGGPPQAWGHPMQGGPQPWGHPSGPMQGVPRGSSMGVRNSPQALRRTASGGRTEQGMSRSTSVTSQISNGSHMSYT", "chain of UniProt P07947 (whole entry, looked up)": "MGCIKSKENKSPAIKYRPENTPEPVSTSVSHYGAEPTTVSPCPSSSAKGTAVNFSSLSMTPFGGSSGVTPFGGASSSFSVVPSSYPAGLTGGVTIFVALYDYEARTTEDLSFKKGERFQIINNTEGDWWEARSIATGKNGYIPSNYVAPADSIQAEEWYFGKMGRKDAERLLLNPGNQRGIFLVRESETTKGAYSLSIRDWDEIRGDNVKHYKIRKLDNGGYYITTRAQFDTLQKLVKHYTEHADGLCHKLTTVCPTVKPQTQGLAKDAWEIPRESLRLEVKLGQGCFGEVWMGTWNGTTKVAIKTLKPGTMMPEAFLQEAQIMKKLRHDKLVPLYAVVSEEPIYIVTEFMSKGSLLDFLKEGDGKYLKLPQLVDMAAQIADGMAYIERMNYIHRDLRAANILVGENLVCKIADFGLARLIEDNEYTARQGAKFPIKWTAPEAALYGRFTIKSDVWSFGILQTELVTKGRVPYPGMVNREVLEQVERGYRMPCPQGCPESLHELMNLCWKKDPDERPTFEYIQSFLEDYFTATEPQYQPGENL"}
{"data": "Set 1", "SMILES": "C[C@@H]1CN(c2cc(-c3nn(C)c4ccc(OC5(C)CC5)cc34)ncn2)C[C@H](C)O1", "technique": "competition with immobilised ligand", "concentration": "1 µM"}
{"target": "CAMK2A (Homo sapiens, UniProt Q9UQM7)", "assay": "cell-free assay", "remaining binding [%]": 98}
{"target": "YES1 (Homo sapiens, UniProt P07947)", "assay": "cell-free assay", "remaining binding [%]": 98}
{"target": "Tyrosine-protein kinase ABL1, non-phosphorylated (ABL1, Homo sapiens, UniProt P00519)", "assay": "cell-free assay", "remaining binding [%]": 85}
{"target": "KIT (Homo sapiens, UniProt P10721)", "assay": "cell-free assay", "remaining binding [%]": 100}
{"target": "TAOK1 (Homo sapiens, UniProt Q7L7X3)", "assay": "cell-free assay", "remaining binding [%]": 82}
{"target": "Ribosomal protein S6 kinase alpha-4, C-terminal kinase domain (RPS6KA4, Homo sapiens, UniProt O75676)", "assay": "cell-free assay", "remaining binding [%]": 81}
{"target": "NTRK2 (Homo sapiens, UniProt Q16620)", "assay": "cell-free assay", "remaining binding [%]": 65}
{"target": "PIK3CA (Homo sapiens, UniProt P42336, E542K)", "assay": "binding", "remaining binding [%]": 32}
{"target": "PIK3CA (Homo sapiens, UniProt P42336, H1047Y)", "assay": "cell-free assay", "remaining binding [%]": 100}
{"target": "DDR1 (Homo sapiens, UniProt Q08345)", "assay": "cell-free assay", "remaining binding [%]": 68}
{"target": "EPHB1 (Homo sapiens, UniProt P54762)", "assay": "cell-free assay", "remaining binding [%]": 99}
{"target": "CDKL5 (Homo sapiens, UniProt O76039)", "assay": "cell-free assay", "remaining binding [%]": 64}
{"target": "PIK3CD (Homo sapiens, UniProt O00329)", "assay": "cell-free assay", "remaining binding [%]": 97}
{"data": "Set 2", "cell line": "mouse MPNST tumor cells", "technique": "high-content immunofluorescence imaging", "item": "nuclear SOX9", "concentration": "10 µM", "time": "12 h", "setting": "mean of 2 replicates", "baseline": "DMSO control", "direction": "higher = more nuclear SOX9"}
{"Structure (SMILES)": "COc1ccccc1Oc1c(NS(=O)(=O)c2ccc(C(C)(C)C)cc2)nc(-c2ncccn2)nc1OCCO", "nuclear SOX9 intensity": "90.2 % of DMSO and 101 % of DMSO and 113 % of DMSO"}
{"Structure (SMILES)": "COc1ccc(-c2nc(-c3ccc(-c4cccc(Cl)c4)o3)[nH]c2-c2ccc(OC)cc2)cc1", "nuclear SOX9 intensity": "128 % of DMSO"}
{"Structure (SMILES)": "c1ccc(CNCc2ccc(CN3CCCNCCNCCCNCC3)cc2)nc1", "nuclear SOX9 intensity": "93.4 % of DMSO"}
{"Structure (SMILES)": "O=C1NC(=O)c2cc(Nc3ccc(F)cc3)c(Nc3ccc(F)cc3)cc21", "nuclear SOX9 intensity": "149 % of DMSO"}
{"data": "Set 3", "host": "mouse", "sample": "microsomes or S9", "concentration": "2 µM", "time": "0.5 h"}
{"Structure (SMILES)": "Cc1ccc(O)c(C(=O)c2cnc(/N=C(\\N)N(C)C)nc2)c1", "remaining compound [%]": 92}
{"Structure (SMILES)": "CCOc1nc(Nc2nc(-c3ccccc3)cs2)nc(OCC)n1", "remaining compound [%]": 87.7}
{"Structure (SMILES)": "CC(C)Cn1cc(NC(=O)NC2CCN(Cc3ccccc3)CC2)c2ccccc2c1=O", "remaining compound [%]": 59}
{"Structure (SMILES)": "Cc1cc(C)cc(NC(=O)N2Cc3c(sc4c3CCCC4)-n3cccc3C2c2cccs2)c1 (centres unmarked)", "remaining compound [%]": 31.2}
{"data": "Set 4", "target": "Ras GTPase-activating protein-binding protein 1, C-terminal RGG region (G3BP1, Homo sapiens, UniProt Q13283)", "technique": "RNA Bind-n-Seq", "molecule type": "RNA", "sample": "in vitro", "concentration": "1 µM", "setting": "whole 134-nt RNA, ends assumed", "together with": "150 mM KCl", "baseline": "input library", "direction": "higher = stronger binding", "constant ends, left off below": "GGGAGUUCUACAGUCCGACGAUC … UGGAAUUCUCGGGUGUCAAGG", "chain of UniProt Q13283 (whole entry, looked up)": "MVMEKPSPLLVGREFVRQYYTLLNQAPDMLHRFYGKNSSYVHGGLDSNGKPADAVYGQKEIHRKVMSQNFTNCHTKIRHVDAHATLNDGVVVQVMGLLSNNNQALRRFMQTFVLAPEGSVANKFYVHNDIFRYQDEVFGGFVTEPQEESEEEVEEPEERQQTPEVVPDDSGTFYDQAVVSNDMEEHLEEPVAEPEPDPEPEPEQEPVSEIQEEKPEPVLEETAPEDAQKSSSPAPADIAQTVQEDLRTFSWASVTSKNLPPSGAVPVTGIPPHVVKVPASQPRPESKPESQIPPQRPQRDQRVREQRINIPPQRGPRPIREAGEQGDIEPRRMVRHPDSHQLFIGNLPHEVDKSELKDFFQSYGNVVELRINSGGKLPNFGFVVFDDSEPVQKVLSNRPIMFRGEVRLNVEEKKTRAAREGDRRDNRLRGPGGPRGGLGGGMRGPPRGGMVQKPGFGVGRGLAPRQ"}
{"Strand": "CCUGUGCUACACAUCGUAUGUACCGAAUCAAACCCCCCCAAACCCCCAAAUUUUUUUAAAAAAGUAUUAUGUUACGCCGUUCGGAUCUGC", "log2 enrichment": -1.04}
{"Strand": "AAGUCCUGUGCUACACAUCGUAUGUACCGAAUCGGGGAGGGGUGGGGUUUUUGGGGAAAGUAUUAUGUUACGCCGUUCGGAUCUGCACUU", "log2 enrichment": 1.67}
{"Strand": "UCCUGUGCUACACAUCGUAUGUACCGAAUCGGGAAAAAAAGGGUUUUUUUGGGAAAGGGAAAGUAUUAUGUUACGCCGUUCGGAUCUGCA", "log2 enrichment": -0.92}
{"Strand": "UGCCCUCCGUGGAGUCUUUGUUUCGAAGUCCGAUAAAGGAAUCUCUAUUCCGGUCUUCUUCUAAAGAGUCUUUGGUACGAACAUCUUCCA", "log2 enrichment": -1.19}
{"Strand": "UGCCGUGCCGGGUGGACGGUCUGCUCGCCUGUCUGCGUGACGAAACUGAGGCACAAAGACGCGCUAUGCCAGCGGCGGGUAUAGCAAGGG", "log2 enrichment": -1.3}
{"Strand": "AAGUCCUGUGCUACACAUCGUAUGUACCGAAUCGGAAAAGGAAAAGGGGAAAAGGGGAAAGUAUUAUGUUACGCCGUUCGGAUCUGCACU", "log2 enrichment": -1.17}
{"Strand": "UGGGAGACGAUCGCGAUGAACACGGUGCUGUCGCGGGCGAACUCACUGUUCGCCUUCUCGCUGAGCGUGAUGGCGGCGCUCACCUUCGGC", "log2 enrichment": -1.92}
{"Strand": "UGGCCCUGGUGGCAUGCGGGGAGGAAGAGGUGGCCUCAUGGAUCGCGGUGGUCCCGGUGGAAUGUUCAGAGGUGGCCGUGGUGGAGACAG", "log2 enrichment": 2.44}
{"note": "Excerpt of the above (set 3):"}
{"Structure (SMILES)": "CCOc1nc(Nc2nc(-c3ccccc3)cs2)nc(OCC)n1", "remaining compound [%]": 87.7}
{"Structure (SMILES)": "CC(C)Cn1cc(NC(=O)NC2CCN(Cc3ccccc3)CC2)c2ccccc2c1=O", "remaining compound [%]": 59}
